# Experimental data pooled from the literature.
# Lines come from different studies, so protocols differ. Numbers after ± are the reported error.
# Organism: Mycolicibacterium smegmatis
Compound,test,test system,setting,scale,measurement,value
CO[C@H]1[C@H](O[C@H]([C@H]2O[C@@H](n3ccc(=O)[nH]c3=O)[C@H](O)[C@@H]2O)[C@H](NCCCNC(=O)[C@@H](NC(=O)[C@@H](NC(=O)N[C@H](C(=O)O)C(C)C)[C@@H]2CCN=C(N)N2)[C@@H](OC(=O)CCCCCCCCCCCCN(O)C(=N)N)C(C)C)C(=O)O)O[C@H](CN)[C@H]1O,microplate alamar blue,ATCC 607,nutrient-deficient condition,,MIC90,0.04 ± 0.005 µg/mL
CCCCCCC#Cc1cncc(-c2nnc(SCc3cc([N+](=O)[O-])cc([N+](=O)[O-])c3)n2C)c1,,,,no activity below value,MIC,≥ 100 µM
CC(=O)N[C@H]1[C@@H](O[C@@H]2O[C@H](C[C@@H](O)[C@H]3O[C@@H](n4ccc(=O)[nH]c4=O)[C@H](O)[C@@H]3O)[C@H](O)[C@H](O)[C@H]2NC(=O)/C=C/CCCCCCCCCC(C)C)O[C@H](CO)[C@@H](O)[C@@H]1O,microplate alamar blue,ATCC 607,nutrient-deficient condition,,MIC90,12.6 µg/mL
CO[C@H]1/C=C/O[C@@]2(C)Oc3c(C)c(O)c4c(O)c(c(/C=N/N5CCN(C)CC5)c(O)c4c3C2=O)NC(=O)/C(C)=C\C=C\[C@H](C)[C@H](O)[C@@H](C)[C@@H](O)[C@@H](C)[C@H](OC(C)=O)[C@@H]1C,,,,,MIC,12.5 to 25 µg/mL
O=C(NC1CCCCC1)C(CCc1ccccc1)N(CCc1c[nH]cn1)C(=O)c1ccccc1 (stereo not drawn),,mc2155,,,MIC,> 128 µM
CCc1nc2ccc(Cl)cn2c1C(=O)NCc1ccc(N2CCC(c3ccc(OC(F)(F)F)cc3)CC2)cc1,,,72 h,,MIC,> 100 µM
CS(=O)(=O)Nc1ncn(-c2cc(F)c(COc3ccc(OS(=O)(=O)F)cc3)c(F)c2)n1,,,,,MIC,6.25 µM
O=C(NCc1ccccc1)C(c1cccs1)N(CCN1CCOCC1)C(=O)c1ccccc1 (stereo not drawn),,mc2155,,,MIC,> 128 µM
[H]/N=C(/N)N[C@H]1[C@H](O)[C@@H](O)[C@H](O[C@@H]2O[C@@H](C)[C@](O)(C=O)[C@H]2O[C@@H]2O[C@@H](CO)[C@H](O)[C@@H](O)[C@@H]2NC)[C@@H](N/C(N)=N\[H])[C@@H]1O,,,,,MIC,0.4 µg/mL
